Assay results pooled from the literature.
Each line is one published result; not all experiments were run side by side. Numbers after ± are the reported error.

CC[C@H](C)[C@H](NC(=O)[C@H](CCCNC(=N)N)NC(=O)[C@H](CCCCN)NC(=O)[C@H](Cc1ccc(O)cc1)NC(=O)[C@H](CC(=O)O)NC(=O)[C@H](C)NC(=O)CNC(=O)CCOCCOCCOCCNC(=O)CN1CCN(CC(=O)O)CCN(CC(=O)O)CCN(CC(=O)O)CC1)C(=O)N[C@H](C(=O)N[C@@H](CC(C)C)C(=O)N[C@@H](CCCCN)C(=O)N[C@H](C(=O)N[C@@H](CC(N)=O)C(N)=O)C(C)C)[C@@H](C)O [copper-64 labelled]
tissue uptake (ex vivo gamma counting; C57BL/6J male mice, B16-F10 tumour, bone; intravenous, 1.85 MBq, 100 min): 0.577 ± 0.124 %ID/g

CSCC[C@H](NC(=O)CNC(=O)[C@H](CCCCN)NC(=O)[C@H](CC(C)C)NC(=O)[C@@H]1CCCN1C(=O)[C@H](CO)NC(=O)[C@H](Cc1c[nH]cn1)NC(=O)[C@H](Cc1c[nH]c2ccccc12)NC(=O)[C@H](CCCNC(=N)N)NC(=O)[C@H](CC(C)C)NC(=O)[C@H](CCCNC(=N)N)NC(=O)[C@H](Cc1c[nH]c2ccccc12)NC(=O)[C@H](CS)NC(=O)CCCCCNC(=O)CN1CCN(CC(=O)O)CCN(CC(=O)O)CCN(CC(=O)O)CC1)C(=O)O [copper-64 labelled]
tissue uptake (PET; C57BL/6J mice, B16-F10 tumour, liver; intravenous, 38 h): 4.48 ± 0.29 %ID/g

CC[C@H](C)[C@H](NC(=O)[C@H](CCCNC(=N)N)NC(=O)[C@H](CCCCN)NC(=O)[C@H](Cc1ccc(O)cc1)NC(=O)[C@H](CC(=O)O)NC(=O)[C@H](C)NC(=O)CNC(=O)CCOCCOCCOCCNC(=O)CN1CCN(CC(=O)O)CCN(CC(=O)O)CCN(CC(=O)O)CC1)C(=O)N[C@H](C(=O)N[C@H](C(=O)N[C@@H](CCCCN)C(=O)N[C@H](C(=O)N[C@@H](CC(N)=O)C(N)=O)C(C)C)C(C)C)[C@@H](C)O [copper-64 labelled]
tissue uptake (ex vivo gamma counting; C57BL/6J male mice, B16-F10 tumour, spleen; intravenous, 1.85 MBq, 100 min): 0.431 ± 0.047 %ID/g

O=C([O-])CN1CCN(CC(=O)O)C[C@H](Cc2ccc(NC(=S)NCCCCC(NC(=O)CCCCCCC(=O)NCCCC[C@H](NC(=O)N[C@@H](CCC(=O)O)C(=O)O)C(=O)O)C(=O)O)cc2)N(CC(=O)[O-])Cc2cccc(n2)C1.[64Cu+2] (stereo partly drawn)
tissue uptake (mice with PSMA+/- PC-3 tumours, PSMA+ PC-3 PIP tumour; 2 h post-injection, same-day comparison): 24.1 ± 10.1 %ID/g

CCCC[C@H]1C(=O)N(C)[C@@H](CCCC)C(=O)N[C@@H](CCCNC(=O)CN2CCN(CC(=O)O)CCN(CC(=O)O)CCN(CC(=O)O)CC2)C(=O)N[C@H](C(=O)NCC(N)=O)CSCC(=O)N[C@@H](Cc2ccc(O)cc2)C(=O)N(C)[C@@H](C)C(=O)N[C@@H](CC(N)=O)C(=O)N2CCC[C@H]2C(=O)N[C@@H](Cc2c[nH]cn2)C(=O)N[C@@H](CC(C)C)C(=O)N(C)CC(=O)N[C@@H](Cc2c[nH]c3ccccc23)C(=O)N[C@@H](CO)C(=O)N[C@@H](Cc2c[nH]c3ccccc23)C(=O)N1C [gallium-68 labelled]
tissue uptake (NOD/SCID mice with CHO-hPD-L1 xenograft, kidney; 10 min post injection): 25.1 ± 4.09 %ID/g

CC[C@H](C)[C@H](NC(=O)[C@H](CCCCN)NC(=O)CNC(=O)[C@H](CC(C)C)NC(=O)[C@H](Cc1ccccc1)NC(=O)[C@H](CCCCN)NC(=O)[C@H](CO)NC(=O)[C@H](Cc1ccccc1)NC(=O)[C@H](Cc1c[nH]c2ccccc12)NC(=O)[C@H](CCC(N)=O)NC(=O)[C@@H](NC(=O)[C@H](Cc1ccccc1)NC(=O)CCCCCNC(=O)CN1CCN(CC(=O)O)CCN(CC(=O)O)CCN(CC(=O)O)CC1)C(C)C)C(=O)N[C@@H](CCC(=O)O)C(=O)N1CCC[C@H]1C(=O)N[C@@H](CC(=O)O)C(=O)N[C@H](C(=O)N[C@@H](CO)C(=O)N[C@@H](CCC(N)=O)C(=O)N[C@H](C(=O)N[C@@H](CCC(N)=O)C(=O)N[C@@H](CC(=O)O)C(=O)N1CCC[C@H]1C(=O)N[C@@H](CC(N)=O)C(=O)N[C@@H](CC(=O)O)C(=O)N[C@@H](CCC(N)=O)C(=O)N[C@@H](Cc1ccc(O)cc1)C(=O)N[C@@H](CCC(=O)O)C(=O)N1CCC[C@H]1C(=O)N[C@@H](Cc1ccccc1)C(=O)O)C(C)C)C(C)C [copper-64 labelled]
tissue uptake (C57BL/6 mice, male, tumour-free, liver; 0.5 h): 16.9 ± 1.1 %ID/g

CC(C)C[C@@H](NC(=O)[C@@H](CCCNC(=N)N)NC(=O)[C@@H](Cc1c[nH]cn1)NC(=O)[C@@H](Cc1c[nH]c2ccccc12)NC(=O)[C@@H](Cc1c[nH]cn1)NC(=O)[C@@H](Cc1ccccc1)NC(=O)[C@H](NC(=O)[C@@H](Cc1ccc(O)cc1)NC(=O)CNC(=O)CNC(=O)CCOCCOCCOCCNC(=O)CN1CCN(CC(=O)O)CCN(CC(=O)O)CC1)[C@H](C)O)C(=O)N[C@H](CC(N)=O)C(=O)N1CCC[C@@H]1C(=O)O [gallium-68 labelled]
tissue uptake (gamma counting; C57BL/6 mice, male, stomach; intravenous, 1.85 MBq, 120 min): 0.91 ± 0.25 %ID/g

[2H]C([2H])([18F])[C@]([2H])(N)C(=O)O
tissue uptake (PET; athymic nude mice, U-87 MG, tumor; dose not given, 20 min post-injection): 2.49 ± 0.36 %ID/cc

C[C@H](O)[C@@H](NC(=O)[C@H]1CCCN1C(=O)[C@@H](CCCCN)NC(=O)[C@@H](CO)NC(=O)[C@@H](Cc1ccc(O)cc1)NC(=O)[C@@H](CC(N)=O)NC(=O)CCOCCOCCOCCNC(=O)CN1CCN(CC(=O)O)CCN(CC(=O)O)CCN(CC(=O)O)CC1)C(=O)N[C@H](CC(=O)O)C(=O)N[C@H](CCCNC(=N)N)C(=O)N[C@H](CCC(N)=O)C(=O)N[C@H](Cc1ccc(O)cc1)C(=O)N[C@H](Cc1c[nH]cn1)C(=O)N[C@H](Cc1ccccc1)C(N)=O [gallium-68 labelled]
tissue uptake (BALB/c nude mice U-87 MG tumour, brain; intravenous, 1.85 MBq, 0.08333 h, radiolabelled): 0.19 ± 0.04 %ID/g

Repeated from above:
CC[C@H](C)[C@H](NC(=O)[C@H](CCCNC(=N)N)NC(=O)[C@H](CCCCN)NC(=O)[C@H](Cc1ccc(O)cc1)NC(=O)[C@H](CC(=O)O)NC(=O)[C@H](C)NC(=O)CNC(=O)CCOCCOCCOCCNC(=O)CN1CCN(CC(=O)O)CCN(CC(=O)O)CCN(CC(=O)O)CC1)C(=O)N[C@H](C(=O)N[C@H](C(=O)N[C@@H](CCCCN)C(=O)N[C@H](C(=O)N[C@@H](CC(N)=O)C(N)=O)C(C)C)C(C)C)[C@@H](C)O [copper-64 labelled]
tissue uptake (ex vivo gamma counting; C57BL/6J male mice, B16-F10 tumour, spleen; intravenous, 1.85 MBq, 100 min): 0.431 ± 0.047 %ID/g
